Published values collected from several papers.
Parts stem from different laboratories: compare values within a part only.

Sample 1
Target: Interferon regulatory factor 3, full length, phosphomimetic (IRF3, Homo sapiens, UniProt Q14653, residues 1-427, S386D/S396D/S398D/S402D/T404D/S405D)
Sequence of UniProt Q14653 (whole entry, unmodified, looked up): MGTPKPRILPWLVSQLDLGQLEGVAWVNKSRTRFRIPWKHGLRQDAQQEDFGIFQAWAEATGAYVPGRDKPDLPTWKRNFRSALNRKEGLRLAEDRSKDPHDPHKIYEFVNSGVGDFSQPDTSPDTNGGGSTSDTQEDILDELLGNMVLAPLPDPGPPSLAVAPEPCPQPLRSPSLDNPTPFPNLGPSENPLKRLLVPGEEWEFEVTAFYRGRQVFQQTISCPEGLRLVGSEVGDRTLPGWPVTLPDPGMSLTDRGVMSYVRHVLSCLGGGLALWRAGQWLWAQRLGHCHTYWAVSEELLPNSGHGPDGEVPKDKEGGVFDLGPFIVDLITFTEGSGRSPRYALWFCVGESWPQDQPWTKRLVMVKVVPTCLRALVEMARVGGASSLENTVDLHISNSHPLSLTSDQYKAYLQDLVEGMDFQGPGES
Technique: protein-binding microarray
Form: double-stranded DNA, one strand shown
Medium: in vitro
Concentration: 2540 nM top
Notes: 60-bp whole probe
With: salmon DNA 0.4 mg/ml
Relative to: random background probes
Reading: higher = stronger binding
Quantity: fitted relative affinity
All sequences stand within: GCCTAGCAC … GTCTTGATTCGCTTGACGCTGCTG
Strand = GACGGTCTCGGGCTGGGGACGTGCTAG; result = -0.377 z-score
Strand = TCAAATCTCTTTCCTTAACTGTGCTAG; result = 1.77 z-score
Strand = TTACAACTGAGTCTCGATTAGTGCTAG; result = -0.203 z-score
Strand = TTATATCTGTGTTATTAAATTGTGCTA; result = 0.327 z-score
Strand = GACGGTCTCGGTCGCGGGACGTGCTAG; result = 0.0869 z-score
Strand = CACGATCTCAGTCTCGAGACGTGCTAG; result = 0.654 z-score
Strand = GGGACTTTGAATTAGAAAGAGTGCTAG; result = -0.411 z-score
Strand = GACGGACTGCTTTTCCTTACGTGCTAG; result = 0.306 z-score

Sample 2
Target: Histone acetyltransferase KAT6A, winged helix 1, GST fusion (KAT6A, Homo sapiens, UniProt Q92794, residues 1-85)
Technique: protein binding microarray
Form: double-stranded DNA, one strand shown
Medium: in vitro
Concentration: not given
Notes: 8-mer, flanks averaged, mean of 2 arrays, mostly near background
Relative to: not given
Reading: higher = stronger binding
Quantity: E-score
Construct (chain): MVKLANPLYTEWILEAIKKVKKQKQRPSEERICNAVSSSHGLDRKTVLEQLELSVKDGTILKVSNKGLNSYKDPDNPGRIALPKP
Strand = GCGCGAAC; result = 0.331
Strand = AAAGAATG; result = -0.198
Strand = AGCCAAAT; result = -0.186
Strand = CCTGGAGC; result = -0.0586
Strand = AATAGAAC; result = -0.154
Strand = CCGGTCAC; result = 0.165
Strand = GTCATGCA; result = -0.182

Sample 3
Target: Fragile X messenger ribonucleoprotein 1, C-terminal low-complexity region (Fmr1, Mus musculus, UniProt P35922)
Technique: RNA Bind-n-Seq
Form: RNA
Medium: in vitro
Concentration: 200 nM
Notes: whole 134-nt RNA, ends assumed
With: 150 mM LiCl
Relative to: input library
Reading: higher = stronger binding
Quantity: log2 enrichment
Library: 7-deaza-guanosine replaces G
Strand = GGGAGUUCUACAGUCCGACGAUCAAGUCCUGUGCUACACAUCGUAUGUACCGAAUCGUGUGUGUGUGUGUGUGUGUGUGAAAGUAUUAUGUUACGCCGUUCGGAUCUGCACUUUGGAAUUCUCGGGUGUCAAGG; result = -0.406
Strand = GGGAGUUCUACAGUCCGACGAUCUCCUGUGCUACACAUCGUAUGUACCGAAUCAAAUUUUUUUAAAUUUUUAAACCCCCAAAAAAGUAUUAUGUUACGCCGUUCGGAUCUGCAUGGAAUUCUCGGGUGUCAAGG; result = 0.975
Strand = GGGAGUUCUACAGUCCGACGAUCCUGUGCUACACAUCGUAUGUACCGAAUCGGCCCCCCCGGGGCCCCCCCGGGGCCCCCCCGGGAAAGUAUUAUGUUACGCCGUUCGGAUCUUGGAAUUCUCGGGUGUCAAGG; result = -2.24
Strand = GGGAGUUCUACAGUCCGACGAUCCACAGACAACACGCACCCACACAGACACAGAGGGAAGGGGUUGGGAUGGGGACAGGGUGCACAGCAGGGCGGGGUAGGACCCCAGCCCGUUGGAAUUCUCGGGUGUCAAGG; result = -0.403

Further values, each from its own experiment
Molecule = PhoQ, residues 284 288 289 292 302 303 AGGLSV; target = PhoP, residues 12 14 15 18 19 QQAYL (Escherichia coli, UniProt P23836); assay = Sort-seq, item: YFP reporter; test system = E. coli; setting = PhoQ-PhoP variant library, with: 10 µM Mg2+; how to read = relative to: high Mg2+ state, higher = stronger signaling; quantity = fold induction; result = 14.2

Repeated from above (sample 2):
Strand = CCGGTCAC; result = 0.165
